# Experimental data gathered from unrelated publications.
# Numbered parts are unrelated; each lists some results of a single study. Changes are numbered by the printed parent chain.

# Block 1
# Target: CCNA2, cyclin fold, Cln2 fusion (human)
# Technique: yeast growth competition, sequencing
# Sample: yeast
# Notes: strong parent motif
# Relative to: not given
# Direction: higher = stronger binding
# Starting sequence: PKN2 docking peptide (human); VSAVQKLDFSDTM; partner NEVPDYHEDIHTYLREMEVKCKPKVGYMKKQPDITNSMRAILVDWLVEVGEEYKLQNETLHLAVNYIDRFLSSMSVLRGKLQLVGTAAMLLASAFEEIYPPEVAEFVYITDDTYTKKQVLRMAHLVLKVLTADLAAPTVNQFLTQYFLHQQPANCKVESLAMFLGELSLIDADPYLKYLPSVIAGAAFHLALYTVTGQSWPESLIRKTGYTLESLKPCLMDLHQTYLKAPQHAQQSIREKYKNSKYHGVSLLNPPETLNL
Change,normalised enrichment score
VSAVQKLDFSQTM [D11Q],1.58
VSAVQKLDFSDTA [M13A],2.31
VGAVQKLDFSDTM [S2G],1.98
VSAVQKLDFSMTM [D11M],2.06
VSAVQKVDFSDTM [L7V],-0.318
VSAVQKLDFSRTM [D11R],1.83
VMAVQKLDFSDTM [S2M],1.92
VSAVQKLDFSDPM [T12P],3.38
CSAVQKLDFSDTM [V1C],2.47
VSAVQKLDLSDTM [F9L],-0.108
VSYVQKLDFSDTM [A3Y],1.17
VFAVQKLDFSDTM [S2F],1.15
VSAVQKYDFSDTM [L7Y],0.11
VSAVQKLDFSDTL [M13L],2.02
VSAVQKLDFSDTT [M13T],2.48

# Block 2
# Target: Prothrombin, mature alpha-thrombin (F2, Homo sapiens, UniProt P00734)
# Technique: aptamer microarray, sandwich
# Form: DNA with 2'F-ANA
# Sample: in vitro
# Tested at: 200 nM
# Notes: whole 15-mer aptamer, many near background
# With: Cy3 exosite-II aptamer, 400 nM
# Direction: higher = stronger binding
# Oligonucleotide: GGTTGGTGTGGTTGG
Modification,mean fluorescence intensity [a.u.]
2'F-ANA at 2 4 10 11 12 14 15,71.7
2'F-ANA at 1 4 6 7 8 9 10 13,51.3
2'F-ANA at 5 7 8 9 12 15,170
2'F-ANA at 1 2 3 5 7 9 10 13 14,41.4
2'F-ANA at 1 3 4 6 9 10 11 13,61.8
2'F-ANA at 1 3 4 6 7 8 9 10 11 12 15,73.6
2'F-ANA at 1 3 4 6 7 9 10 11 13 14 15,50.9
2'F-ANA at 1 3 8 11,307
2'F-ANA at 2 4 6 10 14,59.3
2'F-ANA at 3 4 5 10 12 13 14 15,58.3
2'F-ANA at 1 3 8 14 15,109
2'F-ANA at 2 4 6 8 9 14 15,85.7
2'F-ANA at 1 3 4 5 7 8 12 13 15,93.6
2'F-ANA at 3 4 5 8 9 15,105
2'F-ANA at 2 3 7 8 10 11 12 14,283
2'F-ANA at 3 4 5 7 8 9 11 12,221
2'F-ANA at 2 3 4 8 9 12 13 14 15,287

# Block 3
# Target: Phosphate system positive regulatory protein PHO4, full length, GST-tagged (PHO4, Saccharomyces cerevisiae, UniProt P07270, residues 1-312)
# Technique: competition protein-binding microarray
# Form: double-stranded DNA, one strand shown
# Sample: in vitro
# Tested at: 2 µM
# Notes: whole 60-bp probe, lowest competitor level
# With: Cbf1 competitor, 0.05 µM
# Direction: higher = stronger binding
# Constant ends, left off below: … GTCTTGATTCGCTTGACGCTGCTG
# Construct (chain): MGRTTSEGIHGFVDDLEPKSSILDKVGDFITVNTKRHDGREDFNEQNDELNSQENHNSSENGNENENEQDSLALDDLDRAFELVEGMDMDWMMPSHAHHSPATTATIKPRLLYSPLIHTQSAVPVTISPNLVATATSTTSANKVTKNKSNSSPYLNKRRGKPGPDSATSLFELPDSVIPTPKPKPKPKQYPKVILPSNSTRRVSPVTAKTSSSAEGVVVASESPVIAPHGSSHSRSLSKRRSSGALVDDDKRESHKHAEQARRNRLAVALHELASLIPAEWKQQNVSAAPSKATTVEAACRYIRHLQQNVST
Oligonucleotide,fluorescence intensity
TGACCTCTAGATCGGCACGTCGACCATCAGTGGGAA,6870 a.u.
CGTCCTAGTGATTGTCACGTCACTTCCATGAGGAAG,4560 a.u.
CTTTCCCGATCTTGCGCAGTGGGTGTAGCACATTTG,4590 a.u.
GACGGAACCGTTCCGCTCGTGGCCGATTCAATGTGT,10300 a.u.
ACTTGATTTGCGGAGAACGTGATGGCGACGCACTCG,12800 a.u.
ATATAAATGGAAAAGCTGCATAACCACTTTAACTAA,3770 a.u.
CGGGGTTAAGTTTGTCGAGTGGGTGGCTTGCAGCAG,4580 a.u.
CAATGCACCCAACTGCATGTGCCATTGTGCATCTAC,9550 a.u.
CGGGGTTAAGTTTTTCACGTGACGTGCGATCAGCAG,10800 a.u.
CGACGTTATCGTTACCACCTGAGGCAAGTTTGTTGT,3630 a.u.
TCAGAATGCAAGAAACACGTGAAAAGGTGGAACTTT,14100 a.u.
CTTCAGGGCAACAACCATGTGTTTCCTGGAAGCTTG,8260 a.u.
CAGTTCTCGACCCATCACGTGTGTTCTCGTTTAGCG,17400 a.u.
AAAATCTGTATGACTCACGTGCAAATCATCCATGAG,15000 a.u.
AAAGCGGTAATTTGGAAAGTGGGTGCAGATATCTAT,4500 a.u.
GTAGACCTTGATGTCCATGTGGAAAGCCAAAGCCAT,6540 a.u.
TTTTTCATCGACCGTCACGTGACGGGCTGAGGTTAA,12300 a.u.

# Other studies, line by line
Molecule,target,assay,test system,setting,scale,measurement,value
"PhoQ, residues 284 288 289 292 302 303 AGGCYF","PhoP, residues 12 14 15 18 19 LFHKL (Escherichia coli, UniProt P23836)","Sort-seq, refers to: YFP reporter",E. coli,"PhoQ-PhoP variant library, with: 10 µM Mg2+","relative to: high Mg2+ state, higher = stronger signaling",fold induction,9.77

# Repeated from above (block 1):
Change,normalised enrichment score
CSAVQKLDFSDTM [V1C],2.47
VSAVQKLDLSDTM [F9L],-0.108
VSYVQKLDFSDTM [A3Y],1.17
VFAVQKLDFSDTM [S2F],1.15
VSAVQKYDFSDTM [L7Y],0.11
